Measurements from different studies.
A part holds a random share of what one study measured.

Series 1
Target: Fragile X messenger ribonucleoprotein 1, C-terminal low-complexity region (Fmr1, Mus musculus, UniProt P35922)
Technique: RNA Bind-n-Seq
Form: RNA
Matrix: in vitro
Concentration: 200 nM
Notes: whole 134-nt RNA, ends assumed
Added: 150 mM LiCl
Relative to: input library
Reading: higher = stronger binding
Quantity: log2 enrichment
Library: 7-deaza-guanosine replaces G
GGGAGUUCUACAGUCCGACGAUCUAACUUUAGAGGAGGAUCUGAUGGAUAUGGCAGUGGACGUGGAUUUGGGGAUGGCUAUAAUGGGUACGGAGGAGGACCUGGAGGUGGCAAUGGAAUUCUCGGGUGUCAAGG: -0.202
GGGAGUUCUACAGUCCGACGAUCUGGGAGCUGGAUUUUGUUUAUUUUUUUAGCUCAUUUCCAGGGGUGGGAAUUUUUUUUUAAUAUGUGUCAUGAAUAAAGUUGUUUUUGAAAUGGAAUUCUCGGGUGUCAAGG: -0.881
GGGAGUUCUACAGUCCGACGAUCUCCUGUGCUACACAUCGUAUGUACCGAAUCGGGUUUUUUUGGGAAAAAGGGAAAAAGGGAAAGUAUUAUGUUACGCCGUUCGGAUCUGCAUGGAAUUCUCGGGUGUCAAGG: -1.69

Series 2
Target: Sal-like protein 4, full length isoform B (SALL4, Homo sapiens, UniProt Q9UJQ4-2, residues 1-616)
Technique: universal PBM
Form: double-stranded DNA, one strand shown
Matrix: in vitro
Concentration: not given
Notes: 8-mer, flanks averaged, mean of replicates
Reading: higher = stronger binding
Quantity: E-score
Target sequence (chain): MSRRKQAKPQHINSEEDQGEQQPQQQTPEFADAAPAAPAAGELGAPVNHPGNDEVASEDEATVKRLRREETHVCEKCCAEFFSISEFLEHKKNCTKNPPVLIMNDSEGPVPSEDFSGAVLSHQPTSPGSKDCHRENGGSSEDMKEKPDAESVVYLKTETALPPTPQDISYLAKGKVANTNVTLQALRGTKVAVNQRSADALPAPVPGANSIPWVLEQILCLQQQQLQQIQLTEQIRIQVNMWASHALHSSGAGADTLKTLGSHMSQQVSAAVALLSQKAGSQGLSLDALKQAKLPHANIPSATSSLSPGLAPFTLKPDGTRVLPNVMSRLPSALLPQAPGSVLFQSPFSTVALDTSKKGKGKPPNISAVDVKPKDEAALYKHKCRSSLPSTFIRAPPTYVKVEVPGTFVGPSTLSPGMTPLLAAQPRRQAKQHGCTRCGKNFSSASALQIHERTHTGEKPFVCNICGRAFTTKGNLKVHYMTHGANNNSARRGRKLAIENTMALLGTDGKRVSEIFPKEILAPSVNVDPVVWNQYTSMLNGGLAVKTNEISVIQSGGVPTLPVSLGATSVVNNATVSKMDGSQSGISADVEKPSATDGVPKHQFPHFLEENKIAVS
CTGGCACA: -0.11
AGCCTTAA: -0.0461
GGTTCTAC: -0.0864
GCAACTCA: -0.0926
AGTTAGTA: 0.117
GAAGATGC: -0.142

Series 3
Target: Centromere-binding protein 1, full length, N-terminal tag (CBF1, Saccharomyces cerevisiae, UniProt P17106, residues 1-351)
UniProt P17106, sequence (whole entry, looked up): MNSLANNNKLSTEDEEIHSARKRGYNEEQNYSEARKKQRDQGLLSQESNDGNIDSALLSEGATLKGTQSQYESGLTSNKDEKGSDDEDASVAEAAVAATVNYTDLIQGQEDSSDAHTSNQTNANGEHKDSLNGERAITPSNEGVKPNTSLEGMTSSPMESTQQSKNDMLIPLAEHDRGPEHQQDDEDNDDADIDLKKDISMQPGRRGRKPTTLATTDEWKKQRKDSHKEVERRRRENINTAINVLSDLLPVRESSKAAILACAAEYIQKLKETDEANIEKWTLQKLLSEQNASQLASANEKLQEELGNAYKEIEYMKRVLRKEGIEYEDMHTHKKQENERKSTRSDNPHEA
Technique: protein-binding microarray
Form: double-stranded DNA, one strand shown
Matrix: in vitro
Concentration: 0.8 µM
Notes: whole 60-bp probe, no competitor
Reading: higher = stronger binding
Quantity: fluorescence intensity
All sequences stand within: … GTCTTGATTCGCTTGACGCTGCTG
CTATTGCTGGCTTGCCACGTGATGGCAATAGGCTTC: 10200 a.u.
CTACACTATTTACATATCGTGAAAATGACATTTTTC: 562 a.u.
GAAAGATATAAATCTAACGTGGATTTGTTACAGTAG: 524 a.u.
CTATTTTGCGTCGCGCACGTTTCTCACGTACATTTC: 652 a.u.
GAATCTAACCATGATACCGTGACACAACTACATTAG: 1100 a.u.

Mixed results
PhoQ, residues 284 288 289 292 302 303 TYGVAM
fold induction (PhoP, residues 12 14 15 18 19 LHTVM (Escherichia coli, UniProt P23836); Sort-seq, item: YFP reporter; E. coli; PhoQ-PhoP variant library, added: 10 µM Mg2+; relative to: high Mg2+ state, higher = stronger signaling): 12.9

Repeated from above (series 2):
CTGGCACA: -0.11
